Measurements pooled from the literature.
Each line is one published result; not all experiments were run side by side. ± gives the spread as reported.
TDP1: Tyrosyl-DNA phosphodiesterase 1 (TDP1, Homo sapiens, UniProt Q9NUW8)
Chain of UniProt Q9NUW8 (whole entry, looked up): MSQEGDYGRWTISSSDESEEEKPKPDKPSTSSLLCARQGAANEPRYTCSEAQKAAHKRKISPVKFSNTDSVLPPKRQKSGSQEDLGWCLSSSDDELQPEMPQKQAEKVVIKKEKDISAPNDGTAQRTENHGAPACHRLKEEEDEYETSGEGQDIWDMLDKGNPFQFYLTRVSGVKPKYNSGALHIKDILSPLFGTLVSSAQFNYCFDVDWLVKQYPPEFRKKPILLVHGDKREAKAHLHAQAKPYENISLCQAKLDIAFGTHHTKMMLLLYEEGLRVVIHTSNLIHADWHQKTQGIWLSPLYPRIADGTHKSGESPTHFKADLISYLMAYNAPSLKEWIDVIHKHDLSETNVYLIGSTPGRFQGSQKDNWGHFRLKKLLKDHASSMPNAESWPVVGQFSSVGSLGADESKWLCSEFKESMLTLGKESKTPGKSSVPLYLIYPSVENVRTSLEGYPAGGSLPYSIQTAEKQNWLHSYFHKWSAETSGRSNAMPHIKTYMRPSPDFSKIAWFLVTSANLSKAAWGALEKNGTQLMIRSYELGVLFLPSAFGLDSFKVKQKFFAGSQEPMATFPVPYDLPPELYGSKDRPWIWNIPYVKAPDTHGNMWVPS
Chain of UniProt P0A7A9 (whole entry, looked up): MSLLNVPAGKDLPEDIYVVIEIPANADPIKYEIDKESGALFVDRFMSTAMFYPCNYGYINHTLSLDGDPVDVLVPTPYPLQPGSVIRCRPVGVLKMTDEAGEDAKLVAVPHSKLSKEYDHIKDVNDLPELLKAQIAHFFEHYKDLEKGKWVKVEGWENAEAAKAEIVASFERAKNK

Structure (SMILES) | tested on | test | setting | endpoint | value
Cn1ncc(-c2ccc3c(=O)[nH]nc(CN)c3c2)c1-c1c(F)c(Cl)cc(OC2CC2)c1C#N | CAL-62 | cell viability, inhibitor, CellTiter-Glo | 120 h, baseline-subtracted | IC50 | 0.16 µM
CCN(CC)Cc1c(OC)cc(-c2cc(C(C)=O)n3ccccc23)cc1OC | MV4-11 | cell growth or viability, ATP luminescence |  | IC50 | 1.36 µM
NC(=O)c1ccc(-c2ccccc2Cl)c2c3c([nH]c12)CCC(N)C3 (stereo not shown) | K562/DOX, doxorubicin-resistant | cell growth, CellTiter-Glo | 96 h | IC50 | 0.0212 µM
CC(CCC(=O)OCc1cccc(CN(C(=O)OCc2ccc(B3OC(C)(C)C(C)(C)O3)cc2)[c-]2cccc2)c1)C1CCC2C3C(O)CC4CC(O)CCC4(C)C3CCC12C.[Fe+2].c1cc[cH-]c1 (stereo not shown) | BL2 | cell growth or viability, MTT | 48 h | IC50 | 46 µM
C/C(=N\N=c1/[nH]c(-c2ccccc2)cs1)c1c(O)c2ccccc2oc1=O | human Skin fibroblast | cell growth or viability, MTT | 48 h | IC50 | > 100 µM
CN(C)CCOc1cc(NC(=O)c2cccc(C(=O)Nc3cc(OCCN(C)C)c4ccccc4n3)n2)nc2ccccc12 | HT-1080 | cell growth or viability, ATP luminescence | 72 h | IC50 | 3.3 µM
C=CC(=O)N1CCCC(n2c(=O)c3ncccc3n(Cc3ccc(Oc4ccccc4)cc3)c2=O)C1 (stereo not shown) | HBL1 | cell growth or viability, MTT | 72 h | IC50 | 1.7 µM
O=C1CS/C(=N\N=C\c2cccc3cc4ccccc4nc23)N1c1ccccc1 | SK-BR-3 | cell growth or viability, MTT | 48 h | IC50 | > 50 µM
CC(C)=CC1OC(C)(C)C2C=C3C(=O)C(Cl)=CC(O)C3C3C(O)C4OC4C(=O)C132 (stereo not shown) | SGC-7901 | cell growth or viability, MTS |  | IC50 | 3.19 µM
CCOc1cncc(-c2ccc(NC(=O)C3(c4ccnc(NS(=O)(=O)C5CC5)n4)CCOCC3)nc2)n1 | CAL-27 | cell proliferation, CellTiter-Glo | 72 h | IC50 | 2.68 µM
CO[C@@H]1[C@@H](OC(=O)c2ccc(C)[nH]2)[C@@H](O)[C@H](Oc2ccc3c(O)c(NC(=O)c4c[nH]c(C(=O)Nc5c(O)c6ccc(O[C@@H]7OC(C)(C)[C@H](OC)[C@@H](OC(=O)c8ccc(C)[nH]8)[C@H]7O)c(C)c6oc5=O)c4C)c(=O)oc3c2C)OC1(C)C | 143B | cell growth or viability, ATP luminescence | 72 h | IC50 | ~1.2 µM
O=C(NC1CCCCC1)c1ccnc(N2Cc3cn(Cc4ccc(F)cc4)nc3C2)n1 | HEK293 expressing GluA1 and GluA2 | glutamate excitotoxic cell death, CellTox Green | together with: glutamate | IC50 | 0.066 µM
CCn1nc(Cl)c2c1-c1cnc(N)c(c1)O[C@H](C)c1cc(F)ccc1-c1nn(C)cc1C2 | Ba/F3 parental | cell viability | together with: 10 ng/mL IL-3 | IC50 | > 10 µM
O=C(O)c1ccc(Nc2c(-c3ccccc3)nc3ccc(CON=Cc4cccc(NC(=O)C(F)(F)F)c4)cn23)cc1 | TDP1 | enzyme activity, inhibitor | 100 µM, unpurified compound | inhibition | 39.9%
O=C(NCc1cc(F)cc(F)c1)[C@@]1(O)CCN(c2ccc3[nH]ccc3c2)C1=O | OVXF1023 | colony formation |  | IC50 | 0.064 µM
CN1CCN(C(=O)c2cccc(N3Cc4cn(Cc5ccc(F)cc5)nc4C3)c2)CC1 | HEK293 expressing GluA1 and GluA2 | glutamate excitotoxic cell death, CellTox Green | together with: glutamate | IC50 | 0.033 µM
CCN(C(=O)c1cc(F)ccc1Oc1nncnc1N1CCC2(C1)CN([C@H](CCCN(C)CCOC)C(C)C)C2)C(C)C | MOLM-14 (KMT2A-AF9, FLT3-ITD) | mRNA level, QuantiGene multiplex, item: PBX3 |  | IC50 | 0.106 ± 0.025 µM
CN(C)C(=O)c1cccc(N2Cc3cn(CC4CCCCC4)nc3C2)c1 | HEK293 expressing GluA1 and GluA2 | glutamate excitotoxic cell death, CellTox Green | together with: glutamate | IC50 | 0.026 µM
Cc1sc2c(c1C)C(c1ccc(Cl)cc1)=N[C@@H](CC(=O)NCCCCCCCCC(=O)N1CCN(C(=O)c3cc(Cc4n[nH]c(=O)c5ccccc45)ccc3F)CC1)c1nnc(C)n1-2 | SU-DHL-5 | cell growth or viability, ATP luminescence | 72 h | IC50 | 0.0147 µM
Cc1cc(C(=O)N2CCNCCNCCNCC2)c(O)c(C(=O)N2CCNCCNCCNCC2)c1 | 2C6 normal pancreas | cell viability, MTT | 24 h | IC50 | > 10000 µM

Structure (SMILES) | tested on | test | setting | endpoint | value
O=C(c1cccc(N2Cc3cn(Cc4ccc(F)cc4)nc3C2)c1)N1CCCC1 | HEK293 expressing GluA1 and GluA2 | glutamate excitotoxic cell death, CellTox Green | together with: glutamate | IC50 | 1.15 µM
CN1CCC(N[C@@H]2CCc3[nH]c4c(C(N)=O)ccc(-c5ccccc5Cl)c4c3C2)CC1 | A549 parental | cell proliferation |  | IC50 | 0.0364 µM
Cc1ccc2c(c1)C(O)(CC(=O)c1ccc3c(c1)OCCO3)C(=O)N2 (stereo not shown) | Inorganic pyrophosphatase (ppa, Escherichia coli, UniProt P0A7A9) | enzyme activity, inhibitor |  | IC50 | > 100 µM
CO[C@@H](C[C@H]1C(C)=CC[C@@H]2[C@]3(C)C[C@H](O[C@@H]4O[C@@H](C)[C@H](OC(=O)c5cccc(O)c5)[C@@H](O[C@@H]5O[C@H](CO)[C@@H](O)[C@H](O)[C@H]5NC(C)=O)[C@H]4O)[C@@H](O)C(C)(C)[C@H]3CC[C@]21C)[C@H](N)C(=O)O | THP-29 | cell viability, CCK-8 | 72 h | IC50 | > 10 µM
CNS(=O)(=O)Nc1nccc(Cc2c(C)c3ccc(Oc4ncccc4F)cc3oc2=O)c1F | MDA-MB-435S | cell viability, CellTiter-Glo | 7 days | IC50 | 0.0018 µM
Cc1ccc2c(Cl)cc(Cl)c([O-])c2n1.Cc1ccc2c(Cl)cc(Cl)c([O-])c2n1.Cc1ccnc(-c2cc(C)ccn2)c1.[Co+2] | HepG2 | cell growth or viability, MTT | 48 h | IC50 | 8 µM
COc1cc(-c2cc(C(C)=O)n3ccccc23)c(OC)cc1C(=O)N(C)C | MV4-11 | cell growth or viability, ATP luminescence |  | IC50 | 2.55 µM
Cc1ccc([N+](=O)[O-])cc1S(=O)(=O)N(C)/N=C/c1cnc2ccc(Br)cn12 | UACC-257 | cell growth or viability |  | IC50 | 2.32 µM
CN(C)C(=O)c1cccc(N2Cc3cn(CC4CC4)nc3C2)c1 | HEK293 expressing GluA1 and GluA2 | glutamate excitotoxic cell death, CellTox Green | together with: glutamate | IC50 | 0.036 µM
Cc1ccc(C(C)C)cc1.Cc1ccc(C(C)C)cc1.Cc1ccc(C(C)C)cc1.Cc1ccc(C(C)C)cc1.O=S(=O)(O)C(F)(F)F.O=S(=O)(O)C(F)(F)F.O=S(=O)(O)C(F)(F)F.O=S(=O)(O)C(F)(F)F.c1ccc2c3c4ccccc4c(c2c1)-c1cn(nn1)-c1cc[n+](cc1)[Ru-]1[O]c2c4ccccc4c4c5c(c6ccccc6c(c25)=[O+]1)=[O+][Ru-]([O]4)[n+]1ccc(cc1)-n1cc(nn1)-c1c2ccccc2c(c2ccccc12)-c1cn(nn1)-c1cc[n+](cc1)[Ru-]1[O]c2c4ccccc4c4c5c(c6ccccc6c(c25)=[O+]1)=[O+][Ru-]([O]4)[n+]1ccc(cc1)-n1cc-3nn1 | HCT-15 | cell growth or viability, MTT | 24 h | IC50 | 8.2 µM
COc1cc(C=NOCc2ccc3nc(-c4ccccc4)c(Nc4ccc(C(=O)O)cc4)n3c2)cc(I)c1OC | TDP1 | enzyme activity, inhibitor | 100 µM, unpurified compound | inhibition | 33.7%
CN(C)c1ccnc(N2Cc3cnn(Cc4ccc(F)cc4)c3C2)n1 | HEK293 expressing GluA1 and GluA2 | glutamate excitotoxic cell death, CellTox Green | together with: glutamate | IC50 | 0.731 µM
CCN(C)Cc1c(OC)cc(-c2cc(C(C)=O)n3ccccc23)cc1OC | MV4-11 | cell growth or viability, ATP luminescence |  | IC50 | 1.77 µM
CCOC(=O)/C=C1\S/C(=N\N=C\c2cccc3cc4ccccc4nc23)N(c2ccc(F)cc2)C1=O | SK-BR-3 | cell growth or viability, MTT | 48 h | IC50 | > 50 µM
Cc1ccc(C(C)C)cc1.Cc1ccc(C(C)C)cc1.Cc1ccc(C(C)C)cc1.Cc1ccc(C(C)C)cc1.O=S(=O)(O)C(F)(F)F.O=S(=O)(O)C(F)(F)F.O=S(=O)(O)C(F)(F)F.O=S(=O)(O)C(F)(F)F.c1ccc2c3c4ccccc4c(c2c1)-c1cn(nn1)-c1cc[n+](cc1)[Ru-]1[O]C2=[O+][Ru-]([O]C2=[O+]1)[n+]1ccc(cc1)-n1cc(nn1)-c1c2ccccc2c(c2ccccc12)-c1cn(nn1)-c1cc[n+](cc1)[Ru-]1[O]C2=[O+][Ru-]([O]C2=[O+]1)[n+]1ccc(cc1)-n1cc-3nn1 | AGS | cell growth or viability, MTT | 24 h | IC50 | 10.8 µM
COc1ccc(Cn2cc3c(n2)CN(c2cncc(C(=O)N(C)C)n2)C3)cc1 | HEK293 expressing GluA1 and GluA2 | glutamate excitotoxic cell death, CellTox Green | together with: glutamate | IC50 | 0.054 µM
CC(C)c1ccc(N(C)c2ccc3c(c2)OCC[C@H]3CNc2cnccc2C(=O)O)cc1 | NCI-H1944 | cell growth or viability, ATP luminescence | 7 days | IC50 | 0.0163 µM
O=C1CC(c2ccc(O)cc2)Oc2cc(O)cc([O][Ga+][O]c3cc(O)cc4c3C(=O)CC(c3ccc(O)cc3)O4)c21 (stereo not shown) | LO2 | cell viability, MTT |  | IC50 | > 200 µM
CN1CCN(C(=O)c2ccnc(N3Cc4cn(Cc5ccc(F)cc5)nc4C3)n2)CC1 | HEK293 expressing GluA1 and GluA2 | glutamate excitotoxic cell death, CellTox Green | together with: glutamate | IC50 | 0.02 µM
COC1CC(=O)C2C(O)C=CC(O)C2C12Oc1cccc3cccc(c13)O2 (stereo not shown) | OVCAR-3 | cell growth or viability, resazurin | 72 h | IC50 | 11.1 µM
